Measurements pooled from the literature.
“And” joins repeats or separate records; there may be more than shown. ± gives the spread as reported.

For COc1cc2c(Oc3ccc4[nH]c(C)cc4c3F)ccnc2cc1OCC1(N)CC1, “grade 1-2 T-wave abnormality” read 50% (paediatric refractory sarcoma patients; 10 mg).
O[C@H]1CCCN[C@@H]1CCCn1cnc2c(Cl)c(Cl)ccc21: “AUCtau geometric LS mean” 1120 ng·h/mL (healthy volunteers, plasma; oral, 150 mg twice daily, alone).
[O-][S+]1CCc2nc(N3CCC(c4ncc(Cl)cn4)CC3)nc(NC3(CO)CCC3)c21 (centres unmarked) — result for “adverse event incidence”: 0% (measured: Nausea; healthy male humans; single dose, all groups).
CC(C)C[C@H](NC(=O)[C@H](CCCCN)NC(=O)OCC1c2ccccc2-c2ccccc21)C(=O)N[C@H](C(=O)N[C@@H](Cc1ccccc1)C(=O)N[C@@H](Cc1ccccc1)C(=O)N[C@@H](CCCCN)C(=O)NCC(=O)N[C@@H](Cc1ccccc1)C(=O)N[C@@H](C)C(=O)N[C@@H](Cc1c[nH]c2ccccc12)C(=O)N[C@@H](CC(N)=O)C(=O)N[C@H](C(=O)N[C@H]1CSSC[C@@H](C(=O)N[C@@H](Cc2c[nH]cn2)C(=O)N[C@@H](CCCNC(=N)N)C(=O)N[C@@H](CCCNC(=N)N)C(=O)N[C@@H](C)C(=O)N[C@@H](CC(N)=O)C(N)=O)NC(=O)[C@H](C(C)C)NC(=O)[C@H](CCCNC(=N)N)NC(=O)[C@H](C(C)C)NC(=O)CNC(=O)[C@H](CC(N)=O)NC(=O)[C@H](CCCNC(=N)N)NC(=O)[C@H](Cc2ccc(O)cc2)NC(=O)[C@H](C(C)C)NC1=O)C(C)C)C(C)C gave an AST/ALT ratio of 0.53 ± 0.04 (ICR mouse, blood; intramammary, 5 mg/kg, day 5, 3 d dosing).
Under “apparent terminal t1/2”, C[C@]1(CO)Cc2ncn(-c3ccc(C#N)c(Cl)c3)c2C(=O)O1 is recorded as 4.51 to 6.3 h (human, European, plasma; single rising dose, range of means).
Clc1cc2c(cc1Cl)Oc1cc(Cl)c(Cl)cc1O2: “mRNA fold change” 680 fold (RNA-Seq, measured: Cyp1a1; Sprague-Dawley rat, female, liver; 10 µg/kg; relative to: vehicle).
For N[C@@H]1c2ccccc2OC12CCN(c1cnc3c(N4CCCc5ncccc54)n[nH]c3n1)CC2, “incidence grade ≥3 serious TEAE” read 27.8% (patients advanced metastatic solid tumours; oral, dose not given, dose escalation total).
For O=C(Nc1ccccc1)C1CCN(C(=O)Oc2cccnc2)CC1, “change in Drowsy score” read 32 (psychotropic effects VAS; healthy women; 60 mg; relative to: pre-dose baseline, direction not given).
Under “treatment-emergent adverse events”, CCS(=O)(=O)Nc1ccc(Oc2ccc(F)cc2F)c(-c2cn(C)c(=O)c3[nH]ccc23)c1 is recorded as 0% (pulmonary alveolar hemorrhage, discontinuation; human, relapsed/refractory AML; oral, dose not given).
Cn1cncc1-c1c(F)cncc1NC(=O)c1c(N)nn2cc(F)cnc12: “grade ≥3 anaemia incidence” 11% (human patients; oral, 130 mg once daily).
Under “remaining intact peptide”, CC[C@H](C)[C@H](NC(=O)[C@H](CCCCN)NC(=O)[C@H](CCC(=O)O)NC(=O)[C@H](CCCCN)NC(=O)[C@H](CO)NC(=O)[C@H](CCCCN)NC(=O)[C@H](CCCNC(=N)N)NC(=O)[C@H](Cc1ccccc1)NC(=O)[C@H](Cc1ccccc1)NC(=O)[C@H](CC(=O)O)NC(=O)CNC(=O)[C@H](CC(C)C)NC(=O)[C@@H](N)CC(C)C)C(=O)NCC(=O)N[C@@H](CCCCN)C(=O)N[C@@H](CCC(=O)O)C(=O)N[C@@H](Cc1ccccc1)C(=O)N[C@@H](CCCCN)C(=O)N[C@@H](CCCNC(=N)N)C(=O)N[C@H](C(=O)N[C@H](C(=O)N[C@@H](CCC(N)=O)C(=O)N[C@@H](CCCNC(=N)N)C(=O)N[C@H](C(=O)N[C@@H](CCCCN)C(=O)N[C@@H](CC(=O)O)C(=O)N[C@@H](Cc1ccccc1)C(=O)N[C@@H](CC(C)C)C(=O)N[C@@H](CCCNC(=N)N)C(=O)N[C@@H](CC(N)=O)C(=O)N[C@@H](CC(C)C)C(=O)N[C@H](C(=O)N1CCC[C@H]1C(=O)N[C@@H](CCCNC(=N)N)C(=O)N[C@H](C(=O)N[C@@H](CCC(=O)O)C(=O)N[C@@H](CO)C(=O)O)[C@@H](C)O)C(C)C)[C@@H](C)CC)C(C)C)[C@@H](C)CC is recorded as 1.03% and 1.32% and 1.29% (LC-MS; buffer with human neutrophil elastase; 40 µM, 300 min, pH 7.5, 37 °C; relative to: 0 h).
The AUC(0-12 h) of O=C(c1cc(Cc2n[nH]c(=O)c3ccccc23)ccc1F)N1CCN(C(=O)C2CC2)CC1 is reported as 15500 ng·h/mL (HPLC-MS/MS; human patients, plasma; oral, 75 mg, MTD dose level, cycle 1 day 0).
For O=c1c2cc(Cl)c(CO)cc2[nH]c(=S)n1Cc1cccnc1, “volume of distribution at steady state” read 0.54 L/kg (mouse, plasma; intravenous, dose not given).
For CO[C@H]1C[C@@H]2CC[C@@H](C)[C@@](O)(O2)C(=O)C(=O)N2CCCC[C@H]2C(=O)O[C@H]([C@H](C)C[C@@H]2CC[C@@H](OC(=O)NCCOCCOCCOCCOCCOCCOCCOCCOCCC(=O)N3CCc4cc(Cn5nc(-c6ccc7oc(N)nc7c6)c6c(N)ncnc65)ccc4C3)[C@H](OC)C2)C[C@@H](O)[C@H](C)/C=C(\C)[C@@H](O)[C@@H](OC)C(=O)[C@H](C)C[C@H](C)/C=C/C=C/C=C/1C, “treatment-related fatigue incidence” read 4% (dose-escalation trial; patients with advanced solid tumours; intravenous, all doses weekly, grade ≥3).

Repeated from above:
Clc1cc2c(cc1Cl)Oc1cc(Cl)c(Cl)cc1O2: “mRNA fold change” 680 fold (RNA-Seq, measured: Cyp1a1; Sprague-Dawley rat, female, liver; 10 µg/kg; relative to: vehicle).
For CO[C@H]1C[C@@H]2CC[C@@H](C)[C@@](O)(O2)C(=O)C(=O)N2CCCC[C@H]2C(=O)O[C@H]([C@H](C)C[C@@H]2CC[C@@H](OC(=O)NCCOCCOCCOCCOCCOCCOCCOCCOCCC(=O)N3CCc4cc(Cn5nc(-c6ccc7oc(N)nc7c6)c6c(N)ncnc65)ccc4C3)[C@H](OC)C2)C[C@@H](O)[C@H](C)/C=C(\C)[C@@H](O)[C@@H](OC)C(=O)[C@H](C)C[C@H](C)/C=C/C=C/C=C/1C, “treatment-related fatigue incidence” read 4% (dose-escalation trial; patients with advanced solid tumours; intravenous, all doses weekly, grade ≥3).
